Assay results gathered from unrelated publications.
Each numbered part is a random draw from the data of one study; scales do not carry over between parts.

Block 1
Target: RNA binding protein fox-1 homolog 2, RRM domain, GST-SBP tag (RBFOX2, Homo sapiens, UniProt O43251-10, residues 100-194)
Method: RNA Bind-n-Seq
Form: RNA
Medium: in vitro
Tested at: 365 nM
Notes: natural RNA segment, single round, ends assumed
Reference: no-protein control
Direction: higher = stronger binding
Construct (chain): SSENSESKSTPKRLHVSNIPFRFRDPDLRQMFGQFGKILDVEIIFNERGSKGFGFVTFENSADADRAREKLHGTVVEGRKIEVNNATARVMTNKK
For `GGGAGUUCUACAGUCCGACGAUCGCAGUCAGUUUCUGGUCCUUAGAUGUAUUCUAAGCAGUGUAAGUGUCUGAUUGUACCCUGGUGGCAUGAUCAGUUGUCUUGUAGCUGUCCCCCGCUCCAUAGUUUACAAUUGGAAUUCUCGGGUGCCAA`, “RBNS enrichment (R)” read 0.344.
For `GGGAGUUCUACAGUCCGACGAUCUUUUGGGAAUUCAGACUGUGGAAACAUCGGACUUCCCUUUGCCCUUCCUCAACUUAGUGGCAAAGCCCUGUAUGGAUACUUGUAGGUGCGGGUGAUCCUCAAGGCCAUGCUGGAAUUCUCGGGUGCCAA`, “RBNS enrichment (R)” read 0.522.
`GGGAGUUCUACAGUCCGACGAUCGAUCUCAGCUCACUGGCAACAUCUGCCUCCCGGGUUCAAAUGAUUCUCCUGCCUCAGUCUCCUGAGUAGCUGGGAUUACAGGUGCCCGCCACCACGCUCAGCUAAUUUUUUGGAAUUCUCGGGUGCCAA`: “RBNS enrichment (R)” 0.227.
`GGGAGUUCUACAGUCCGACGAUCAUUUAUCAGUGAUUUGUAAGUUUCAUCAAGUGAUUUCUUCGACAAGAUGAACCAAAGGAUUAGCCUCGCGCUACGUCAUUGCAUCCGCUCCCCCUCGUCCUGACUCAGCUUGGAAUUCUCGGGUGCCAA`: “RBNS enrichment (R)” 0.938.
`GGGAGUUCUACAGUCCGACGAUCCCCUGGGUCGCCGCUUCCACCCGGACCACUUCACAUGCACCUUCUGCCUGCGCCCGCUCACCAAGGGGUCCUUCCAGGAGCGCGCCGGCAAGCCCUACUGCCAGCCCUGCUGGAAUUCUCGGGUGCCAA`: “RBNS enrichment (R)” 0.612.
Under “RBNS enrichment (R)”, `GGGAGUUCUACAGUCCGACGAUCACUCAGAUGGAAAAGUAUUCUAGGUGCCAGUGUUAGGAUGUCAGUUUUACAAAAUAAUGAAGCAAUUAGCUAUGUGAUUGAGAGUUAUUGUUUGGGGAUGUGUGUUGUGGUGGAAUUCUCGGGUGCCAA` is recorded as 3.78.
For `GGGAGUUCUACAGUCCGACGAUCCCCUUGGAGCAAAUUCUGCCUAAGCCUCUCACCAAAAUUGAAAUGAAAACAGUUCCACUGACUACAAAAGAGGAAAAAGGCAUAGGGAUAUUCCCUGGUAUCAGUGUAAUUGGAAUUCUCGGGUGCCAA`, “RBNS enrichment (R)” read 0.359.
For `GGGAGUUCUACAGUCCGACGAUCGGUGGCCUGGUCCGCGGAGGGUGCACCUGCCCUCCACAGUGGGAGCUGCAUGGGCCUCCACACCACCUUGGGAACCCCAUGGCACUGCCCUUCAGGGAAGCCGACCAGCCUGGAAUUCUCGGGUGCCAA`, “RBNS enrichment (R)” read 0.547.

Block 2
Target: Centromere-binding protein 1, full length, N-terminal tag (CBF1, Saccharomyces cerevisiae, UniProt P17106, residues 1-351)
UniProt P17106, sequence (whole entry, looked up): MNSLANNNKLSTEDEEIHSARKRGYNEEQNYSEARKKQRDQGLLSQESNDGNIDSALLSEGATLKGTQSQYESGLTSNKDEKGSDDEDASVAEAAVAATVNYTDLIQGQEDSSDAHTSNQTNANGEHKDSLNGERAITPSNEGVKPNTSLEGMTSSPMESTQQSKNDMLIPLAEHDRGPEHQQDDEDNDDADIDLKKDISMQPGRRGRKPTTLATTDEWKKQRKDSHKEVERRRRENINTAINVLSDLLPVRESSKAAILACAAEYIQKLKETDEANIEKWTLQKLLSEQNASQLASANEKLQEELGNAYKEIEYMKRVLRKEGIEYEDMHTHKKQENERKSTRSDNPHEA
Method: protein-binding microarray
Form: double-stranded DNA, one strand shown
Medium: in vitro
Tested at: 0.8 µM
Notes: whole 60-bp probe, no competitor
Direction: higher = stronger binding
For `GAATTGGAGTCTACACACGTTTCCAACCTCTGCTAGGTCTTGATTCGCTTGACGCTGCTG`, the fluorescence intensity was 532 a.u.
For `CTAAAGGTTTGACAGCACGACTATGCAGTTTTCTTCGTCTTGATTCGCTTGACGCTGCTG`, the fluorescence intensity was 505 a.u.
The fluorescence intensity of `GAATACAATATTCCTGATGTAATAATACCAATCTAGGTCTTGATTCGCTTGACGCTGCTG` is reported as 532 a.u.
`CTAATTGTCATTTAACACGGGGATGAGCTTCTTTTCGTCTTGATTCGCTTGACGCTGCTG` has a fluorescence intensity of 604 a.u.
With `CTATAGAGTTTCATTCACATGAATAATCTGTTATTCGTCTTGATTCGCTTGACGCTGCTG` the fluorescence intensity was 576 a.u.
`GAAGAGAACTTTAGCGTCACCAGTTACTGCGACTAGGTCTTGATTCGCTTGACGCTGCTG` gave a fluorescence intensity of 501 a.u.
The fluorescence intensity of `CTACGGAATAGGCGCCACGTTTCCGTGGGTGACTTCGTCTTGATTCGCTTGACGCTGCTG` is reported as 616 a.u.
`CCTAACTACTATAATCATGTGATATAGCTTCGTACAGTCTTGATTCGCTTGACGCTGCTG` gave a fluorescence intensity of 3550 a.u.
`GAAGACTGATTATGACGTCGGATCCTATGACAATAGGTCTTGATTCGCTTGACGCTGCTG` gave a fluorescence intensity of 531 a.u.
`CTAATTAGTCTTTTATTCGTGATAAAAGCGAAATTCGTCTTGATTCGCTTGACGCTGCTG` has a fluorescence intensity of 544 a.u.
For `GAAGAAAGCAATGCTGATGATGTACCACAAAGTTAGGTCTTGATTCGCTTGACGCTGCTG`, the fluorescence intensity was 552 a.u.
For `TGTACGAAGCTATATCACAAGGATATAGTAGTTAGGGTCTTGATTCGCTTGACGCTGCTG`, the fluorescence intensity was 554 a.u.
With `GAATATGACTACTACGTGATGGTCGATAGTTGATAGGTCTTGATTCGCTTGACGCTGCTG` the fluorescence intensity was 569 a.u.
The fluorescence intensity of `GAAAAAACAATACAACGCGTGCCTTTGAAAATGTAGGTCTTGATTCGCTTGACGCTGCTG` is reported as 605 a.u.
With `CTAAGCTTTGTTTCACTCGTGCCCAGGATAATTTTCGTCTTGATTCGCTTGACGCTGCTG` the fluorescence intensity was 613 a.u.
The fluorescence intensity of `CTAAGTGCGGCTTTTCATCAGACGTGGAATGTCTTCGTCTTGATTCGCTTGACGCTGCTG` is reported as 543 a.u.
`CTAGTGTGCAGCCACGTGCGGATGAATAATAAATTCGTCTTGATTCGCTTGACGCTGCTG` has a fluorescence intensity of 3900 a.u.

Block 3
Target: RING finger protein unkempt homolog, zinc fingers 1-6, GST-SBP tag (UNK, Homo sapiens, UniProt Q9C0B0, residues 30-357)
UniProt Q9C0B0, sequence (30-357, looked up): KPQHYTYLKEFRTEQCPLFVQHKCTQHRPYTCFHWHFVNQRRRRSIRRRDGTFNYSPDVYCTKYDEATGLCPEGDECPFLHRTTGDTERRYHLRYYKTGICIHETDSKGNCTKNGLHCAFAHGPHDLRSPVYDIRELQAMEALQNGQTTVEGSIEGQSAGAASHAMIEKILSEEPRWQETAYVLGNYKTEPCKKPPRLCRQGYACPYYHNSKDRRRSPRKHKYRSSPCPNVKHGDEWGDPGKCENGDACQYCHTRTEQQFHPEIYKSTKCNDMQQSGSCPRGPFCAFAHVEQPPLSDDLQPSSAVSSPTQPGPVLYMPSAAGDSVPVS
Method: RNA Bind-n-Seq
Form: RNA
Medium: in vitro
Tested at: not given
Notes: RNA with constant flanks, ends assumed
Reference: input RNA pool
Direction: higher = stronger binding
`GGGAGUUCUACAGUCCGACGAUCUCUGCCCCAGAACAAUUCUGCAGAGUGGUGAAGUUCACUUCCCCAACUCUUCUCCAAGUCCCGCUUUCCUUUCCUUCUGGCUCCAAGGUGCUCUGUGUCCGUCUGUGUAUGUGUGUGUCUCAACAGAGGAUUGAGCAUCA` gave a bound/input enrichment of 0.684 ratio.
The bound/input enrichment of `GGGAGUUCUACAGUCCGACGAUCGCUGGUCAUCCUCUGGCACAGAACGAACGUUGUCUUCACAUGUUUUUACAAGAUGAAAUAACCGAUAAAAGCUAUACUCCAUCUAAAAUAAGACAUGCCUGAAAUUUGGCAAGAAGGGGCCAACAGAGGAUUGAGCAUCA` is reported as 0.184 ratio.
With `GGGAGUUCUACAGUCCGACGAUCAAAAUAAACAGAAUAGACCAUGACCGGAGAGCGAUGGCUACUUUAUUGAGUAAAUUCCGGACCGACUUCUCUGAUAUCAUGGUCCUUGGAGAUAUCAACACCAAGCCAAAAAAAGAAAAUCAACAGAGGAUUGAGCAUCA` the bound/input enrichment was 0.248 ratio.
The bound/input enrichment of `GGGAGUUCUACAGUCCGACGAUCUAUUGCAAGGACCUUCUUUGCUGCCAGUUAUCAUAGGCUGUUUUAAGUUAGAAAACUGAACCGCAACACUGAAUACUGUAGAAAUGCACUUUGCUCAGUAAUACUUGAGUUGUUGCAAUACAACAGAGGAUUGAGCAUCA` is reported as 0.196 ratio.
`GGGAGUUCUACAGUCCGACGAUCCAAGGGAAGCCCAACUUUGAAGAGUUCUUUGAAAUUCUAACUCCCAAAAUCAACCAGACAUUCCGUGGCAUCAUGACAAUGUUGAACAUGCAGUUUGUCAUCCGGGUGAGGAGAUGGGAUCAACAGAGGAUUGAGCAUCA` gave a bound/input enrichment of 0.125 ratio.
For `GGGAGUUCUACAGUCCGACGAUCCCUGGCACCCGAGCCCCUGAUCCCACAGAUAGUCGAAGUCUUCAUAUUCAGCACCCAGGGUACCGACCGGGAGCCGGGACGCUCUCCUCAGGCAACACACAUUGCCCUUCUAGGUUUAGUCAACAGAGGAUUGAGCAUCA`, the bound/input enrichment was 0.913 ratio.
The bound/input enrichment of `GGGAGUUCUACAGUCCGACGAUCAAUAUGGCAUCUUCCUUGCUUGCUAUAGCAGGGGAAGGGAAAAUGCCAGUCUUUUUAAUCCCGCAAGCUUCUCGAUCUUAUAAUUAUUAUUUUUUUAAAUUCUGGUCAUGGAUGCUUCUUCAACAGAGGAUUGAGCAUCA` is reported as 2.06 ratio.
With `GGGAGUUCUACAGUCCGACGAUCUGCAUUCGCAAAGCAAAGAUCUCUGCUGUUGCUUUCCGGAAAGCUUUCUGCCACCACAAGUCCGUGGAACUUGAUGCCACAGGUGUGAAUGCUGAUAUCACGAUUACAGACAUUAUCAGUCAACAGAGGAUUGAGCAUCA` the bound/input enrichment was 0.118 ratio.

Block 4
Target: Prothrombin, mature alpha-thrombin (F2, Homo sapiens, UniProt P00734)
Method: aptamer microarray, sandwich
Form: DNA with 2'F-ANA
Medium: in vitro
Tested at: 200 nM
Notes: whole 15-mer aptamer, many near background
Added: Cy3 exosite-II aptamer, 400 nM
Direction: higher = stronger binding
Strand: GGTTGGTGTGGTTGG
For `2'F-ANA at 1 2 3 4 5 7 8 9 10 11 14 15`, “mean fluorescence intensity” read 48.1 a.u.
`2'F-ANA at 1 2 4 6 8 9 11`: “mean fluorescence intensity” 104 a.u.
For `2'F-ANA at 1 2 3 5 6 9 11 12`, “mean fluorescence intensity” read 106 a.u.
For `2'F-ANA at 5 7 13`, “mean fluorescence intensity” read 165 a.u.
Under “mean fluorescence intensity”, `2'F-ANA at 3 5 6 7 9 11 12 13 15` is recorded as 121 a.u.
For `2'F-ANA at 3 7 8 9 11 13 14 15`, “mean fluorescence intensity” read 693 a.u.
`2'F-ANA at 2 4 6 11 12 13`: “mean fluorescence intensity” 347 a.u.
Under “mean fluorescence intensity”, `2'F-ANA at 1 4 6 8 11 14` is recorded as 49 a.u.
For `2'F-ANA at 1 2 4 5 11 14 15`, “mean fluorescence intensity” read 45.2 a.u.
`2'F-ANA at 1 2 5 12 14` — result for “mean fluorescence intensity”: 43.9 a.u.
Under “mean fluorescence intensity”, `2'F-ANA at 4 7 13 14` is recorded as 103 a.u.
For `2'F-ANA at 1 3 5 6 9 12 14`, “mean fluorescence intensity” read 57.6 a.u.
`2'F-ANA at 1 2 3 6 12 14`: “mean fluorescence intensity” 83 a.u.
`2'F-ANA at 1 2 4 6 8 9 12 14`: “mean fluorescence intensity” 58.3 a.u.
`2'F-ANA at 1 2 3 6 11 12 13 14`: “mean fluorescence intensity” 74.9 a.u.
`2'F-ANA at 1 3 6 8 10 11 13 14 15` — result for “mean fluorescence intensity”: 62.2 a.u.
For `2'F-ANA at 2 4 7 13 14`, “mean fluorescence intensity” read 114 a.u.
`2'F-ANA at 2 3 6 10 11 12`: “mean fluorescence intensity” 432 a.u.
For `2'F-ANA at 2 3 5 6 9 13`, “mean fluorescence intensity” read 60.1 a.u.
For `2'F-ANA at 1 2 7 8 9 10 12 13 14`, “mean fluorescence intensity” read 50.3 a.u.
Under “mean fluorescence intensity”, `2'F-ANA at 2 3 4 6 7 8 10 11 15` is recorded as 189 a.u.
`2'F-ANA at 3 6 10 11 12 13` — result for “mean fluorescence intensity”: 520 a.u.
Under “mean fluorescence intensity”, `2'F-ANA at 1 5 7 9 11 13 14` is recorded as 45.4 a.u.

Some of these lines once more (block 2):
For `GAAGAAAGCAATGCTGATGATGTACCACAAAGTTAGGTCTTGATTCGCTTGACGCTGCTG`, the fluorescence intensity was 552 a.u.
For `TGTACGAAGCTATATCACAAGGATATAGTAGTTAGGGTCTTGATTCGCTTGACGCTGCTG`, the fluorescence intensity was 554 a.u.
With `GAATATGACTACTACGTGATGGTCGATAGTTGATAGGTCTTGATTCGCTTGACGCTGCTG` the fluorescence intensity was 569 a.u.
The fluorescence intensity of `GAAAAAACAATACAACGCGTGCCTTTGAAAATGTAGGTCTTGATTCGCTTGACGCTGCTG` is reported as 605 a.u.
